# Measurements gathered from unrelated publications.
# Lines come from different studies, so protocols differ. “And” joins repeats or separate records; there may be more than shown.
# Target: Cholecystokinin receptor type A (CCKAR, Homo sapiens, UniProt P32238)
Compound,assay,conditions,how to read,endpoint,result
C/C(=N\OCCCN1CCCCC1)c1ccc(C(F)(F)F)cc1,"agonist, IP-One",10 µM,,activation,2.11%
CCc1nnc(-c2c(OC)cc(-c3cnc4cc(-c5cnn(C)c5)ccn34)cc2OC)o1,"agonist, radioligand binding",10 µM,reference: control,specific binding,87.3%
CS(C)(=O)=Nc1ccc(-c2ccc(-c3nc4cc(O[C@@H]5CO[C@H]6[C@@H]5OC[C@H]6O)[nH]c4cc3F)cc2)cc1,"calcium signal, antagonist",10 µM,,inhibition,-17%
COc1ccc(F)cc1S(=O)(=O)Nc1cnc2c(c1)C(=O)NCCO2,"ligand displacement, radioligand",10 µM,,inhibition,8%
Cc1sc2c(c1C)C(c1ccc(Cl)cc1)=NC(CC(=O)OC(C)(C)C)c1nnc(C)n1-2 (centres unmarked),"ligand displacement, radioligand",1 µM,,remaining binding,91.1%
Cc1ccc2c(n1)c(-c1cccc(S(C)(=O)=O)c1)c(C)n2C/C(F)=C/CN,"ligand displacement, radioligand",10 µM,,inhibition,11%
Cc1cc(-c2ccc3ccccc3c2)nnc1NCCN1CCN(C)CC1,antagonist,concentration not given,,antagonist activity,negative
CCN(CC)CCOc1ccc(-c2nnn(Cc3ccc(OC)cc3)c2N)cc1,radioligand binding,"10 µM, human, with: radioligand 10000 nM",,inhibition,-1.51%
O=C(O)c1ccc(-c2nc(-c3ccccc3Cl)c3sccn23)cc1,"radioligand binding, safety screen panel",10 µM,reference: control,specific binding,51.7% and 55.6%
CCOC(=O)[C@](CC)(CCCSCCOCCOCCNC(=O)c1ccc(-c2c3ccc(=N)c(S(=O)(=O)O)c-3oc3c(S(=O)(=O)O)c(N)ccc23)c(C(=O)O)c1)NC(=O)c1ccc(C2CC2)c(Cc2ccc(F)cc2)n1,"ligand displacement, radioligand",10 µM,,inhibition,23%
Cc1cc(Nc2nc(C[C@@]3(C(=O)O)CCN(Cc4cccc(Cl)c4F)[C@H](C)C3)cc(C)c2F)[nH]n1,inhibitor,10 µM,,inhibition,-19%

# A few entries again:
Compound,assay,conditions,how to read,endpoint,result
CCc1nnc(-c2c(OC)cc(-c3cnc4cc(-c5cnn(C)c5)ccn34)cc2OC)o1,"agonist, radioligand binding",10 µM,reference: control,specific binding,87.3%
